Assay results gathered from unrelated publications.
Compare with care: the assays were run in different laboratories. Values joined by “and” are separate records of one study, mostly repeats; a detail may differ. Numbers after ± are the reported error.
USP20 ZnF-UBD domain: Ubiquitin carboxyl-terminal hydrolase 20, ZnF-UBD domain (USP20, Homo sapiens, UniProt Q9Y2K6)
ZBTB11/CRBN: ZBTB11/CRBN (Homo sapiens, UniProt O95625+Q96SW2)

Nc1ncnc2c1ncn2[C@@H]1O[C@H](COP(=O)(O)OP(=O)(O)O)[C@@H](O)[C@H]1O
reduction of acidification (V-type proton ATPase (Rattus norvegicus, UniProt D4A133+P62815+P63081); single-vesicle pHrodo TIRF; rat; 200 µM, twofold excess over ATP, added: ATP 100 µM): ~20%

CC(=O)N[C@H](C(=O)N1C[C@H](O)C[C@H]1C(=O)NCc1ccc(-c2scnc2C)cc1)C(C)(C)SCCCCCCNC(=O)C[C@@H]1N=C(c2ccc(Cl)cc2)c2c(sc(C)c2C)-n2c(C)nnc21
binding stoichiometry (Bromodomain-containing protein 3, BD1 (BRD3, Homo sapiens, UniProt Q15059); ITC; concentration not given, 25 °C, compound in cell, protein in syringe): 0.68 ± 0.02

c1ccc(C(NCc2cccnc2)(c2ccccc2)c2ccccc2)cc1
Hill coefficient (KCNQ1 (Homo sapiens, UniProt P51787, E160R/R237E); concentration-response, tail currents; AO state-locked mutant): 0.49

Nc1nc2c(ncn2[C@@H]2O[C@H](COP(=O)(O)O)[C@@H](O)[C@H]2O)c(=O)[nH]1
reaction velocity (GUK1 (Homo sapiens, UniProt Q16774); enzyme activity, NADH-coupled; 125 µM, added: KCl 10 mM): 0.0888 µM/s and 0.101 µM/s and 0.094 µM/s

O=C(CCCCCCC(=O)Nc1ccccc1)NO
binding stoichiometry (HDAC8 (Homo sapiens, UniProt Q9BY41); ITC; Hepes buffer; concentration not given, pH 7.5): 0.9

O=[N+]([O-])c1cc(C(F)(F)F)ccc1NCc1ccco1
TΔS (Endothelial PAS domain-containing protein 1, PAS-B domain (EPAS1, Homo sapiens, UniProt Q99814, N288Q); binding, ITC, reverse mode): -0.68 ± 0.03 kcal/mol

CCNC(=O)/C=C/c1cccc(Br)c1
remaining transport activity (SLC6A19 (Homo sapiens, UniProt Q695T7); inhibitor, FLIPR membrane potential; CHO-BC cells; 1 µM, unit not given; relative to: no inhibitor): 0.474

Nc1ncnc2c1ncn2[C@@H]1O[C@H](COP(=O)(O)OP(=O)(O)O)[C@@H](O)[C@H]1O
kcat (CKMT1A (Homo sapiens, UniProt P12532); substrate, Kinase-Glo luminescence; pH 7.0, reverse reaction, WT mutant, added: second substrate in excess): 41 ± 14 s⁻¹

O=C(O)CCc1ccc2c(c1)OCO2
Kd (USP20 ZnF-UBD domain): > 1000 µM

CNCC(=O)O
remaining activity (Sodium- and chloride-dependent glycine transporter 2 (Homo sapiens, UniProt Q9Y345); glycine uptake, inhibitor, [3H]glycine uptake; 1000 µM, log concentration 1, added: [3H]glycine; relative to: no inhibitor): 102%

CCCCc1nc2c(N)nc3ccccc3c2n1Cc1ccc(N)cc1
lowest activating concentration (TLR7 (Homo sapiens, UniProt Q9NYK1); NF-κB reporter gene, agonist; HEK-Blue HEK293 overexpressing TLR7): 16 nM

COc1cc2c(cc1OC)CN(C(C)CCc1ccc(O)cc1)CC2 (centres unmarked)
selectivity ratio (Tmem97 (Rattus norvegicus, UniProt Q5U3Y7); binding; relative to: Ki sigma-1 over Ki sigma-2): 22 and ~22

Cc1nnc2n1-c1sc(C#Cc3cnn(C4(CCN5CCN(C)CC5)CN(c5cccc6c5C(=O)N(C5CCC(=O)NC5=O)C6=O)C4)c3)c(Cc3ccccc3)c1COC2 (centres unmarked)
protein level (BRD3 (Homo sapiens, UniProt Q15059); degrader, western blot; SCID mouse MV4-11 xenograft, tumour; intraperitoneal, 20 mg/kg single dose): no effect

CCN1CCC[C@H]1CNC(=O)c1c(O)c(Cl)cc(Cl)c1OC
log2 fold change (Mas-related G-protein coupled receptor member X4 (Homo sapiens, UniProt Q96LA9); β-arrestin recruitment, TANGO luminescence, measured: MRGPRX4; concentration not given; relative to: basal luminescence): -0.054

O=C(O)C1CCCNC1 (centres unmarked)
fraction bound (SLC6A6 (Homo sapiens, UniProt P31641, Y138A); binding, microscale thermophoresis; 37.6 nM, fitted curve; higher = more binding): 0.00186

OC[C@H]1OC(O)[C@H](O)[C@@H](O)[C@@H]1O (some centres unmarked)
kcat (Hexokinase-3 (HK3, Homo sapiens, UniProt P52790, R480W); substrate inhibition; mutant R480W, complete substrate inhibition model, added: ATP 20 mM): 34 ± 3 s⁻¹

CCCCCCCCC(=O)c1cc(O)c(O)c(O)c1
activation (NR1D1 (Homo sapiens, UniProt P20393); reporter gene, Gal4 hybrid reporter; 10 µM; relative to: vehicle): 2.78 fold

O=C(O)CCOc1ccccc1
Kd (USP20 ZnF-UBD domain): 523 µM

Nc1ccc(C(=O)O)cc1
current density (BEST1, with wild-type BEST1 (Homo sapiens, UniProt O76090, D302A); ion current, whole-cell patch clamp; HEK293 co-expressing mutant and wild-type; concentration not given, voltage 100 mV): 10.6 pA/pF and 22.4 pA/pF and 40.1 pA/pF and 23.4 pA/pF and 13.9 pA/pF and 18.4 pA/pF

[2H]c1cc(C)c(NC(=O)c2cnc(Nc3cc(N4CCCCC4)nc(C)n3)s2)c(Cl)c1
inhibition (CSF1R (Homo sapiens, UniProt P07333); 0.01 µM): > 90%

Nc1ncnc2c1ncn2[C@@H]1O[C@H](COP(=O)(O)OP(=O)(O)O)[C@@H](O)[C@H]1O
delta Tm (DNA mismatch repair protein MutL (mutL, Bacillus subtilis, UniProt P49850, K302S); thermal stabilisation, differential scanning fluorimetry; pH 7.5, added: nucleotide 2 mM): ~3 °C

O=C(NC1CCC1)c1ccc2nc(-c3cccc(NS(=O)(=O)NCCN4CCCCC4)c3)cn2c1
remaining activity (MAP4K4 (Homo sapiens, UniProt O95819); enzyme activity; 10 µM): 84%

CC[C@@H]1[C@H](F)C(=O)N[C@@H]1COc1nccc2cc(C(N)=O)c(OC)cc12
inhibition (STK38 (Homo sapiens, UniProt Q15208); ATP-site probe binding, ActivX profiling; THP-1 cell lysate; 0.04 mM, Lys1 site): -3.9%

CC(C)C[C@H](NC(=O)C[C@H](O)[C@H](CC(C)C)NC(=O)[C@H](Cc1c[nH]cn1)NC(=O)CNC(=O)[C@@H](NC(=O)[C@H](C)NC(=O)[C@H](Cc1c[nH]c2ccccc12)NC(=O)[C@H](CCC(N)=O)NC(=O)[C@@H](Cc1ccccc1)NC(=O)COCCOCCNC(=O)CCC(C(=O)O)N1CCN(CC(=O)O)CCN(CC(=O)O)CCN(CC(=O)O)CC1)C(C)C)C(N)=O (some centres unmarked) [lutetium-177 labelled]
tissue uptake (female BALB/c nu/nu mice, spleen; intravenous, 50 pmol, 24 h): 0.05 %ID/g

CCC(C)(NCCc1ccc(Cl)c(C(F)(F)F)c1)c1cccc(NC2=CC(=O)N(C3CCC(=O)NC3=O)C2=O)c1 (centres unmarked)
Dmax (ZBTB11/CRBN; protein degradation, degrader, HiBiT luminescence; MOLT-4): 71%

Cc1cn([C@H]2C[C@H](O)[C@@H](CO)O2)c(=O)[nH]c1=O
Km (deoxyribonucleoside phosphotransferase I (Trichomonas vaginalis); substrate; added: p-nitrophenylphosphate 100 mM): 3.57 ± 0.42 mM

O=c1nc(SCc2cc(F)cc(C(F)(F)F)c2)nc(SCc2csc3ccc(Cl)cc23)[nH]1
mean decatenated DNA (TOP2B (Homo sapiens, UniProt Q02880); decatenation; 1.95 µM): 100%

O=S(=O)(O)C1CCNCC1
normalised MST signal (SLC6A6 (Homo sapiens, UniProt P31641, G62A); binding, microscale thermophoresis; 977 nM, room temperature, added: 50 nM labelled protein; higher = more binding): -0.0253

Cc1n[nH]c2ccc(-c3cc(OC[C@@H](N)Cc4ccccc4)cnc3-c3ccoc3)cc12
log2 fold change (Negative regulator of the PHO system (PHO85, Candida albicans, UniProt Q9HGY5); kinase binding, competitor, MIB/MS competition, measured: PHO85; Candida albicans cell lysate; 1 µM; relative to: DMSO): 0.232

Oc1ccc(/C=C/c2cc(O)cc(O)c2)cc1
cooperativity factor (O-methyltransferase (Sorghum bicolor, UniProt A0A1B6PFV1); ITC two-site model; exothermic site, added: sinefungin): 97.9

Cc1nc(CSc2nc(SCc3ccc(C(C)C)cc3)nc(=O)[nH]2)cs1
decatenated DNA (TOP2A (Homo sapiens, UniProt P11388); decatenation; 7.8 µM, replicate 1): 55.8%

O=C1CCC(N2C(=O)C=C(Nc3cccc(C4(NCCc5ccc(C(F)(F)F)c(Cl)c5)CCC4)c3)C2=O)C(=O)N1 (centres unmarked)
Dmax (ZBTB11/CRBN; protein degradation, degrader, HiBiT luminescence; MOLT-4): 78%

Nc1ncnc2c1ncn2[C@@H]1O[C@H](COP(=O)(O)CP(=O)(O)OP(=O)(O)O)[C@@H](O)[C@H]1O
calcium influx (P2X purinoceptor 1 (P2RX1, Homo sapiens, UniProt P51575, D170A); calcium influx; 316 nM; relative to: ionomycin response): 0% and 0.207% and 0.351%

CCOc1ccc(NC(=O)OC(Cn2nc(C(C)C)cc2C(C)C)C(C)C)cc1 (centres unmarked)
current (Neuronal acetylcholine receptor; alpha4/beta2, (α4)2(β2)3 stoichiometry (Homo sapiens, UniProt P17787+P43681); ACh-evoked current, two-electrode voltage clamp; 1 µM, high-sensitivity stoichiometry, added: ACh 10 µM; relative to: ACh alone): 479 ± 25%

OC1(c2ccc(Cl)cc2)CCN(Cc2c[nH]c3ccccc23)CC1
outward current density (CatSper channel complex (Homo sapiens, UniProt Q7RTX7+Q86XQ3+Q8NEC5+Q96P56); ion current, whole-cell patch clamp; human sperm; 10 µM, at +80 mV): 23 ± 4 pA/pF

Some of these lines once more:
Cc1nc(CSc2nc(SCc3ccc(C(C)C)cc3)nc(=O)[nH]2)cs1
decatenated DNA (TOP2A (Homo sapiens, UniProt P11388); decatenation; 7.8 µM, replicate 1): 55.8%

CCCCc1nc2c(N)nc3ccccc3c2n1Cc1ccc(N)cc1
lowest activating concentration (TLR7 (Homo sapiens, UniProt Q9NYK1); NF-κB reporter gene, agonist; HEK-Blue HEK293 overexpressing TLR7): 16 nM

Cc1nnc2n1-c1sc(C#Cc3cnn(C4(CCN5CCN(C)CC5)CN(c5cccc6c5C(=O)N(C5CCC(=O)NC5=O)C6=O)C4)c3)c(Cc3ccccc3)c1COC2 (centres unmarked)
protein level (BRD3 (Homo sapiens, UniProt Q15059); degrader, western blot; SCID mouse MV4-11 xenograft, tumour; intraperitoneal, 20 mg/kg single dose): no effect

Oc1ccc(/C=C/c2cc(O)cc(O)c2)cc1
cooperativity factor (O-methyltransferase (Sorghum bicolor, UniProt A0A1B6PFV1); ITC two-site model; exothermic site, added: sinefungin): 97.9

O=C1CCC(N2C(=O)C=C(Nc3cccc(C4(NCCc5ccc(C(F)(F)F)c(Cl)c5)CCC4)c3)C2=O)C(=O)N1 (centres unmarked)
Dmax (ZBTB11/CRBN; protein degradation, degrader, HiBiT luminescence; MOLT-4): 78%
